Results gathered from unrelated publications.
A part holds a random share of what one study measured. Substitutions count along the parent as printed.

Set 1
Target: RNA binding protein fox-1 homolog 2, RRM domain, GST-SBP tag (RBFOX2, Homo sapiens, UniProt O43251-10, residues 100-194)
Method: RNA Bind-n-Seq
Molecule type: RNA
Sample: in vitro
Concentration: 365 nM
Setting: natural RNA segment, single round, ends assumed
Relative to: no-protein control
Reading: higher = stronger binding
Constant ends, left off below: GGGAGUUCUACAGUCCGACGAUC … UGGAAUUCUCGGGUGCCAA
Construct (chain): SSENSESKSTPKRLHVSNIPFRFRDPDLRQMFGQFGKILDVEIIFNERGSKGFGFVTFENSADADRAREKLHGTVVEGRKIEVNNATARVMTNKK
Oligonucleotide	RBNS enrichment (R)
GCACGCCGCCUCCUGCCUCCCUGAGCGCUGCUGCAUCCUGCACGCCCUGGAACCCAGGAGCGCCCCAGCAACCCUGACUCCCUGCCAGCACGUCCAAGGCUGCUUACCCC	8.52
GAACUUUUAAGAGGAUAGAAUACAUGGAAACGCAAAUGAGUAUUUCGGAGCAUGAAGACCCUGGAGUUCAAAAAACUCUUGAUAUGACCUGUUAUUACCAUUAGCAUUCU	4.26
GAAUUUUUUAUUUUUUGGUAUUGGCCAUAAGCAACAAUUUUCAGAUUUGCACAAAAAGAUACCUUAAAAUUUGAAACAUUGCUUUUAAAACUACUUAGCACUUCAGGGCA	1.47
UGGUUGGGAGUGGUGCCAGUUGAACAGCAGAUUCUGCUUCUUGUCACUGUUUCAAAAGCGUCAACUCUGUGUUCCUAGUUUCGAUGAACUCCCCAUUCAUUUUUAACACA	0.873
UAGUUAGUUGCCUUUGAUAGAAUUCCUUGCACCUGCCAUUGUUGGUUUGAUGAACACGAUUAGGUACCCAGUGUGAUCCCACCCUCACCCCACCUCACCCAGAGCAAACC	0.69
ACUCAGCGGAAGGGGAACUUCUUCAUGGGUGGUUCAGAUGGUGGCUACACCAUCUGGUGAGGAACCAAGGCCACCUCUGUGCCGGGAAAGACAUCACAUACCUUCAGCAC	0.18
AUAAAAGAACUCAACUUUUACACUGAUAAAAUACUCUAGCUUGGGCCAGAGAAGACAGUGCUCGUUAGCACUGGUCCAGGAAACCCUGGCUUGCUUUCCAAGCCCAAUGA	0.456
CUAGUUUUGUCUAUAUAUCUUUUCCAUGAAAUUAUAGCUAUCUAUGUAUUUGUAGUUGUUUCUUUCAAAAACAAUUUUUAAAAAUUGGAAAGGGAUAUAUAUGAGAAGUG	0.485

Set 2
Target: CCNA2, cyclin fold, Cln2 fusion (human)
Method: yeast growth competition, sequencing
Sample: yeast
Setting: strong parent motif
Relative to: not given
Reading: higher = stronger binding
Starting sequence: E2F1 docking peptide (human); PPVKRRLDLETDH
Change	normalised enrichment score
R6P	0.326
D8E	3.39
P2F	3.18
L7C	0.385
T11Y	6.17
T11I	3.12
R6V	0.746
T11P	5.45
T11W	5.13
L7P	-0.361
T11E	3.73
D12P	5.6
L9F	6.26
V3P	2.02
L7Y	-0.347
P2A	3.52
H13F	4.03
L7M	0.363
E10H	4.78
L7I	2.15
R6Y	0.797
L7G	0.224
D12E	4.54

Set 3
Target: ABI1, truncated, D143A, DHFR fusion (Arabidopsis thaliana)
Method: DHFR PCA, deep sequencing
Sample: yeast
Setting: methotrexate growth selection, single substitutions
Together with: (+)-ABA 58 µM
Relative to: wild-type fitted maximum
Reading: higher = stronger binding
Starting sequence: PYL1, truncated, DHFR fusion (Arabidopsis thaliana); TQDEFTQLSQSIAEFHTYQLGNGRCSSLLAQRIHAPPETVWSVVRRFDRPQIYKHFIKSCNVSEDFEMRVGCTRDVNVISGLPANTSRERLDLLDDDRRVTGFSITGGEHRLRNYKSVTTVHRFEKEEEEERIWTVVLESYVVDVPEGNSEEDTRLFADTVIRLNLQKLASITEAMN
Change	relative binding score [%]
R88N	78.6
S63A	91.5
R46P	-7.59
E4Y	86.4
P36M	75.8
E174D	50.4
L156K	64.1
E127C	91.6
F15P	-16.7
R123K	96.5
D97R	85.4
F47M	-1.39

Set 4
Target: TEF, bZIP domain (human)
Method: DHFR protein complementation
Sample: yeast
Setting: single substitutions, most at no-binding floor
Relative to: wild-type JUN-FOS pair
Reading: higher = stronger binding
Starting sequence: JUN, bZIP domain (human); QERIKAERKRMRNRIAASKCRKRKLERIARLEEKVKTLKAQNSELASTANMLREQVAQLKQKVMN; partner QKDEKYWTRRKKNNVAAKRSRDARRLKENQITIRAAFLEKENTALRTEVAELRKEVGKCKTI
Change	binding fitness [natural log]
Q41M	-1.38
E44V	-1.36
R30G	-1.39
E44D	-1.3
K34T	-1.54
Q55L	-1.3
E33F	-1.25
T48Q	-1.43
S43M	-1.47
K39R	-1.25
E54P	-1.53
A57M	-1.25
A40V	-1.52
A40W	-1.47
S43K	-1.24
A46H	-1.62
N42M	-1.42
E33M	-1.46
S43N	-1.45
E54C	-1.45
K39V	-1.45
E54G	-1.29
T48C	-1.33
T48V	-1.45

Repeated from above (set 2):
Change	normalised enrichment score
D12P	5.6
T11P	5.45
R6P	0.326
H13F	4.03
